{"data": "Assay results collected from several papers", "note": "Numbered parts are unrelated; each lists some results of a single study. “And” joins repeats or separate records; there may be more than shown.", "UniProt Q13873, sequence (whole entry, looked up)": "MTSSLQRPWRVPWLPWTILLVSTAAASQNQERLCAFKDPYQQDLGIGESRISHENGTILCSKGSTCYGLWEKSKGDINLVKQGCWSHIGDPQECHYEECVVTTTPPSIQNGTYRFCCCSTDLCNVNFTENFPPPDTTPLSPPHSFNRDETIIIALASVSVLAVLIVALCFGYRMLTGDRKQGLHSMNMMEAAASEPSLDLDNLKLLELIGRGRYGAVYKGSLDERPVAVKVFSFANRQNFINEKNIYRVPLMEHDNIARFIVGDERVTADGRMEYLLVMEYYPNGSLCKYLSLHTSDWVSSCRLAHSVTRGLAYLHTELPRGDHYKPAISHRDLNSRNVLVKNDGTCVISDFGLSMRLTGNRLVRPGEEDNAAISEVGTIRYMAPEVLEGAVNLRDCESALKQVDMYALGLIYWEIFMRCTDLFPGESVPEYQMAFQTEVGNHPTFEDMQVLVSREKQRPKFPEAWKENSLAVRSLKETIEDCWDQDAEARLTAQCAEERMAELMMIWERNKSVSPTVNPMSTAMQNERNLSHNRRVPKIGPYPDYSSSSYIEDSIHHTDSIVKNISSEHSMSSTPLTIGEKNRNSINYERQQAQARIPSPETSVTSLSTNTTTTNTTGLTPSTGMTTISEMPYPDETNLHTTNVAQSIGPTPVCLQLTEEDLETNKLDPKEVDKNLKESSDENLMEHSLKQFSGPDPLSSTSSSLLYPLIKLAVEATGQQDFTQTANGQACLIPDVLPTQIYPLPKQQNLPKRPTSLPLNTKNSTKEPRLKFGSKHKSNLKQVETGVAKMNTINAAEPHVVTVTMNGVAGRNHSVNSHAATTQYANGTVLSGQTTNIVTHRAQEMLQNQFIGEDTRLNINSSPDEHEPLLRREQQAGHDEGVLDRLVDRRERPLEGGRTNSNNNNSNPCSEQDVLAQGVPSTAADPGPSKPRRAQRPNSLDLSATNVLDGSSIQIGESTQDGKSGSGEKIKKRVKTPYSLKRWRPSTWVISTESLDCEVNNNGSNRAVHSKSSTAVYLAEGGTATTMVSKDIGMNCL", "UniProt P50750, sequence (whole entry, looked up)": "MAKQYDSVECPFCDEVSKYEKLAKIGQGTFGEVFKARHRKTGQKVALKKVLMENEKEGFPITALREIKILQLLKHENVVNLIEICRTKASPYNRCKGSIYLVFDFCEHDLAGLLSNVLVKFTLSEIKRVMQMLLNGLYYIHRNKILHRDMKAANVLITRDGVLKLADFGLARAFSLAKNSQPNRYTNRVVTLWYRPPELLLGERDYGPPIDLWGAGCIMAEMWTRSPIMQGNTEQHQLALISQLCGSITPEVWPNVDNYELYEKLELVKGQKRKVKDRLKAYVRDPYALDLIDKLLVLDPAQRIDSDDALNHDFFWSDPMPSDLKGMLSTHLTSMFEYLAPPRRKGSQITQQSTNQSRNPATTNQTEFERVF", "UniProt Q16816, sequence (whole entry, looked up)": "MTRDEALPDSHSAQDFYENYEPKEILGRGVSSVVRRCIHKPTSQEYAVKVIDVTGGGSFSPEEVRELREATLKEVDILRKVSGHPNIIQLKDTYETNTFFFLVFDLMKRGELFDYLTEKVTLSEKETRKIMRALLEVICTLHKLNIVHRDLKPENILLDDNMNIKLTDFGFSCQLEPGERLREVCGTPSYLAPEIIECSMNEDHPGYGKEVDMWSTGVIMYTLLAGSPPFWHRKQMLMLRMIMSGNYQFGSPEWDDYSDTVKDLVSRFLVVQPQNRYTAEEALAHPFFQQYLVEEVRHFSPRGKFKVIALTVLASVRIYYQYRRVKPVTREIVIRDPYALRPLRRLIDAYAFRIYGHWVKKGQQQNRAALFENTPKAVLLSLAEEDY"}
{"data": "Sample 1", "target": "Dual specificity protein kinase CLK1 (CLK1, Homo sapiens, UniProt P49759)", "read-out": "enzyme activity", "mode": "inhibitor", "concentration": "0.5 µM", "baseline": "control", "UniProt P49759, sequence (whole entry, looked up)": "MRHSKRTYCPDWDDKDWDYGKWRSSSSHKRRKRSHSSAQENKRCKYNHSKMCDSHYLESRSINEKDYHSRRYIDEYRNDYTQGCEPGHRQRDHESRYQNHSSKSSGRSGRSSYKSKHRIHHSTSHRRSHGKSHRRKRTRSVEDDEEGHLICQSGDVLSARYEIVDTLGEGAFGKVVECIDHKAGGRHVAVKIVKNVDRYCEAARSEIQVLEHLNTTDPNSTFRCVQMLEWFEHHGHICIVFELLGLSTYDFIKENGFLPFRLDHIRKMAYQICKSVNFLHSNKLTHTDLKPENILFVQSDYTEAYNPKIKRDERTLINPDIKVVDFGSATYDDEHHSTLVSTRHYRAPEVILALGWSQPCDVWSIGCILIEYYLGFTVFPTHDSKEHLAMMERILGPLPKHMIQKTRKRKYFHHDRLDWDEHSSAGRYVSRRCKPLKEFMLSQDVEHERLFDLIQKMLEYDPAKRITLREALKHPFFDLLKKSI"}
{"Compound": "CSc1nc(-c2ccnc(N[C@@H](C)c3ccccc3)c2)c(-c2ccc(F)cc2)[nH]1 (racemic)", "remaining activity [%]": 96.8}
{"Compound": "O=S(=O)(NCCNC/C=C/c1ccc(Br)cc1)c1cccc2cnccc12", "remaining activity [%]": 103}
{"Compound": "CC(=O)c1ccc(N2CCOCC2)cc1O", "remaining activity [%]": 110}
{"Compound": "CCc1[nH]c(-c2ccc(OC)cc2)nc1-c1ccncc1", "remaining activity [%]": 105}
{"Compound": "Oc1ccc(Nc2nc(-c3ccc(Cl)cc3)cs2)cc1", "remaining activity [%]": 104}
{"Compound": "CC#CC(=O)Nc1cc2c(Nc3ccc(F)c(Cl)c3)ncnc2cn1", "remaining activity [%]": 82.5}
{"Compound": "Fc1ccc(-c2nc3n(c2-c2ccncc2)CCS3)cc1", "remaining activity [%]": 103}
{"Compound": "CCCC(=O)Oc1ccc2[nH]c(C(=O)c3cc4ccccc4[nH]3)cc2c1", "remaining activity [%]": 99.3}
{"Compound": "Nc1ncnc2c1cnn2-c1ccccc1", "remaining activity [%]": 91.8}
{"Compound": "Cc1cc(Nc2nc(-c3ccccc3)nc3ccccc23)n[nH]1", "remaining activity [%]": 74}
{"Compound": "COc1cc(Nc2c(C#N)cnc3cc(OCCCN4CCN(C)CC4)c(OC)cc23)c(Cl)cc1Cl", "remaining activity [%]": 81}
{"Compound": "NC(=O)c1ccc(N(C(N)=O)c2c(F)cccc2F)nc1-c1ccc(F)cc1F", "remaining activity [%]": 108}
{"Compound": "Cc1ccc(NC2=CC(=O)c3sc(C)nc3C2=O)cc1", "remaining activity [%]": 100}
{"Compound": "Nc1nc(Nc2ccc(S(N)(=O)=O)cc2)nn1C(=O)c1c(F)cccc1F", "remaining activity [%]": 85.1}
{"Compound": "CC[n+]1c(/C=C/N(C)c2ccccc2)n(-c2ccccc2)c2ccc(-c3nc4ccccc4s3)cc21", "remaining activity [%]": 108}
{"Compound": "O=C1NC(=O)C(c2c[nH]c3ccccc23)=C1c1c[nH]c2ccccc12", "remaining activity [%]": 111}
{"Compound": "Nc1nccc(-c2c(-c3ccc(F)cc3)ncn2C2CCNCC2)n1", "remaining activity [%]": 98.2}
{"Compound": "COc1ccc(S(=O)(=O)N(CCO)c2ccccc2CN(C)CC=Cc2ccc(Cl)cc2)cc1", "remaining activity [%]": 96.4}
{"data": "Sample 2", "Compound": "Cn1cc(Cl)c2c(Oc3c(F)cc(Nc4cc(Cl)nc(N)n4)cc3F)ccnc21", "read-out": "cell-free assay", "method": "competition with immobilised ligand", "concentration": "0.1 µM"}
{"target": "LYN (Homo sapiens, UniProt P07948)", "remaining binding [%]": 99}
{"target": "ERBB4 (Homo sapiens, UniProt Q15303)", "remaining binding [%]": 97}
{"target": "SBK1 (Homo sapiens, UniProt Q52WX2)", "remaining binding [%]": 97}
{"target": "PHKG1 (Homo sapiens, UniProt Q16816)", "remaining binding [%]": 100}
{"target": "CDK9 (Homo sapiens, UniProt P50750)", "remaining binding [%]": 100}
{"target": "SGK1 (Homo sapiens, UniProt O00141)", "remaining binding [%]": 80}
{"target": "RET (Homo sapiens, UniProt P07949)", "remaining binding [%]": 99}
{"target": "BMPR2 (Homo sapiens, UniProt Q13873)", "remaining binding [%]": 100}
{"data": "Sample 3", "SMILES": "CC(=O)N[C@@H](Cc1c[nH]c2ccccc12)C(=O)N[C@@H](CCC(=O)C=[N+]=[N-])C(=O)OC(C)C", "species": "C57BL/6 CES1-/- mice, EL4 tumour", "route": "subcutaneous", "dose": "0.3 mg/kg/day DON equivalent", "time": "5 days"}
{"test": "UPLC-MS/MS metabolomics, measured: N1-methyl-4-pyridone-3-carboxamide", "test system": "EL4 tumour", "conditions": "normalised to tissue mass", "how to read": "higher = more metabolite", "metabolite peak intensity": "2.29e+06 a.u. and 3.24e+06 a.u. and 2.43e+06 a.u. and 3.56e+06 a.u. and 3.32e+06 a.u. and 2.72e+06 a.u."}
{"test": "UPLC-MS/MS metabolomics, measured: guanidinoacetate", "test system": "EL4 tumour", "conditions": "normalised to tissue mass", "metabolite peak intensity": "4.04e+07 a.u. and 2.95e+07 a.u. and 3.13e+07 a.u. and 3.97e+07 a.u. and 6.03e+07 a.u. and 3.38e+07 a.u."}
{"test": "UPLC-MS/MS, measured: N-acetyl-aspartyl-glutamate", "test system": "EL4 tumour", "metabolite peak intensity": "3.72e+06 a.u. and 1.14e+06 a.u. and 3.57e+06 a.u. and 2.23e+06 a.u. and 1.59e+06 a.u. and 3.33e+06 a.u."}
{"test": "LC-MS/MS metabolomics, measured: 2'-deoxyinosine", "test system": "EL4 tumour", "conditions": "normalised to tissue mass", "how to read": "higher = more metabolite", "metabolite peak intensity": "463000 a.u. and 665000 a.u. and 738000 a.u. and 480000 a.u. and 390000 a.u. and 557000 a.u."}
{"test": "UPLC-MS/MS, measured: leucine", "test system": "EL4, tumour", "conditions": "normalised to tissue mass", "how to read": "higher = more metabolite", "metabolite peak intensity": "3e+09 a.u. and 2.67e+09 a.u. and 2.47e+09 a.u. and 2.07e+09 a.u. and 2.48e+09 a.u. and 2.45e+09 a.u."}
{"data": "Sample 4", "target": "DNA polymerase theta, ATPase domain (POLQ, Homo sapiens, UniProt O75417)", "read-out": "enzyme activity", "mode": "inhibitor", "concentration": "77 µM", "baseline": "untreated", "UniProt O75417, sequence (whole entry, unmodified, looked up)": "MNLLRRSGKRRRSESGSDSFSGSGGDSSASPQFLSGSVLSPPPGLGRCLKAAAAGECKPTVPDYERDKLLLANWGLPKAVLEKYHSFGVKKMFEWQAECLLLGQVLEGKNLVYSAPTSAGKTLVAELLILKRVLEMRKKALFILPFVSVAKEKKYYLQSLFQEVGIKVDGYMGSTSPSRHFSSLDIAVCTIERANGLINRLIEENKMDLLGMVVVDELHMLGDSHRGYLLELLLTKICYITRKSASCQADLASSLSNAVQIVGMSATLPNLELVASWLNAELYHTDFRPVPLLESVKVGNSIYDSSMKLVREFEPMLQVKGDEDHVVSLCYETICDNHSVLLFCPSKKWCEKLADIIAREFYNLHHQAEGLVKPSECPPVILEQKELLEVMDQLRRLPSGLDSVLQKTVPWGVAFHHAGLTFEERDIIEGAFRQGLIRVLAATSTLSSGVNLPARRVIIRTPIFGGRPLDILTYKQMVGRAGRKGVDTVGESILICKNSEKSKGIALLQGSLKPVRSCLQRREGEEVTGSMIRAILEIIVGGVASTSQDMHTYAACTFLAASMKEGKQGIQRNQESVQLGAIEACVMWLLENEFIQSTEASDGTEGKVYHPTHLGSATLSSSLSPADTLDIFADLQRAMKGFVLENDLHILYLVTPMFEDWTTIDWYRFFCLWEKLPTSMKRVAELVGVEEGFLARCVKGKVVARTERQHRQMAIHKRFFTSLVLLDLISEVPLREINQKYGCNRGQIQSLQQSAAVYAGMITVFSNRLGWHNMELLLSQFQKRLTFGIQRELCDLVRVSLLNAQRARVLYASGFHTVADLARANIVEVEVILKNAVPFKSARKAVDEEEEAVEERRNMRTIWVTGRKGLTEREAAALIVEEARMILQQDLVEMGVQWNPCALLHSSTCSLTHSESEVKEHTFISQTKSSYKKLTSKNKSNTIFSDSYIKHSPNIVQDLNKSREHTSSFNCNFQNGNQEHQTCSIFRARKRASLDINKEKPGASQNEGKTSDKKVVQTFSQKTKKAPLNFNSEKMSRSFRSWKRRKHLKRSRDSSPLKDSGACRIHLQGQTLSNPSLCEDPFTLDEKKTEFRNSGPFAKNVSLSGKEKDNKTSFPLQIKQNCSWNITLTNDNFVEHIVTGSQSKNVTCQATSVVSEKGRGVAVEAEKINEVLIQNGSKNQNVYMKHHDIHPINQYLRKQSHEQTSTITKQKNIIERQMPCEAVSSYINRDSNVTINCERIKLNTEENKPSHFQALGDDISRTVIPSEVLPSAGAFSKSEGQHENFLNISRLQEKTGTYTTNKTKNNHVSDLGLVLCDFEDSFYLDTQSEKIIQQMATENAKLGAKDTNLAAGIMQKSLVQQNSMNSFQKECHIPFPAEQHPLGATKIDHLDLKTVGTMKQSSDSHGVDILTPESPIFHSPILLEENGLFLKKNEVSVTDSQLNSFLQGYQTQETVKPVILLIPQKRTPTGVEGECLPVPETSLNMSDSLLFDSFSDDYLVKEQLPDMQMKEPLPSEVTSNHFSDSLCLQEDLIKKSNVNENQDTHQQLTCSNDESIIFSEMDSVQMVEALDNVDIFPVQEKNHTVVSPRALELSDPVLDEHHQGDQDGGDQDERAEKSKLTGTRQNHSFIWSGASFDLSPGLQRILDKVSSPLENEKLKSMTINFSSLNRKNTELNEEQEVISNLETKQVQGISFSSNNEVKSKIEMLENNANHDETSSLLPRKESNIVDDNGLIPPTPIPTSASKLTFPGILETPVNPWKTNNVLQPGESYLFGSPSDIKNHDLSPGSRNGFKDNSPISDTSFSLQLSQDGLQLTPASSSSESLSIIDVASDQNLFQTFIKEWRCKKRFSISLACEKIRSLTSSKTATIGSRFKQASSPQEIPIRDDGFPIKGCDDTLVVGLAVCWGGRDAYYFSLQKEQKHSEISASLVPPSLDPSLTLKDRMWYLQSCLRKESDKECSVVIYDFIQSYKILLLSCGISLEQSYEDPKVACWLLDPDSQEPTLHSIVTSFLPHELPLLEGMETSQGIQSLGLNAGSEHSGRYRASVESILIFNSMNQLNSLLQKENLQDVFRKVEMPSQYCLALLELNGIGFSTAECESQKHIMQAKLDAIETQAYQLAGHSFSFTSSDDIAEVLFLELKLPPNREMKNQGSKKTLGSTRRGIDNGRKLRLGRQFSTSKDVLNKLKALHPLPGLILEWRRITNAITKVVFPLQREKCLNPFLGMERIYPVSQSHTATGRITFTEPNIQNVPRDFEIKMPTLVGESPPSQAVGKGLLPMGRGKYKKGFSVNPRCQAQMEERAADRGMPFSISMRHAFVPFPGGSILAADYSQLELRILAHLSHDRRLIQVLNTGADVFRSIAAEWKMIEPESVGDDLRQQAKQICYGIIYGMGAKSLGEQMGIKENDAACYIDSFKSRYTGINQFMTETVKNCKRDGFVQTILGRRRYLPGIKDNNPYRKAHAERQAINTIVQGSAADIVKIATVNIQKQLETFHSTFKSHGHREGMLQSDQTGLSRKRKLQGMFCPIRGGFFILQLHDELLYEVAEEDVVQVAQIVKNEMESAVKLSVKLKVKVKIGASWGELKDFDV"}
{"SMILES": "O=C(O)CSCC(=O)NC1CCSC1=O (stereo not drawn)", "remaining activity [%]": 99.4}
{"SMILES": "NC[C@H]1O[C@H](O[C@H]2[C@H](O)[C@@H](O[C@H]3O[C@H](CO)[C@@H](O)[C@H](N)[C@H]3O)[C@H](N)C[C@@H]2N)[C@H](O)[C@@H](O)[C@@H]1O", "remaining activity [%]": 93.7}
{"SMILES": "CNC(=O)c1cc(COc2nnc(Nc3ccc(Cl)cc3)c3ccoc23)ccn1", "remaining activity [%]": 104}
{"SMILES": "CN(C)CCCO[C@@H]1[C@H]2OC(C)(C)O[C@H]2O[C@@H]1[C@H](O)CO", "remaining activity [%]": 103}
{"SMILES": "Nc1ccc2c3c(cccc13)C(=O)NC2=O", "remaining activity [%]": 89.2}
{"SMILES": "OC[C@H]1O[C@H](O[C@]2(CCl)O[C@H](CCl)[C@@H](O)[C@@H]2O)[C@H](O)[C@@H](O)[C@H]1Cl", "remaining activity [%]": 96.8}
{"SMILES": "CCCCc1ccc2[nH]c(NC(=O)OC)nc2c1", "remaining activity [%]": 96.2}
{"SMILES": "Nc1ccc(-c2ccc3ncc4ccc(=O)n(-c5cccc(C(F)(F)F)c5)c4c3c2)cn1", "remaining activity [%]": 99.1}
{"SMILES": "COc1cc(/C=C/C(=O)N2CCC=CC2=O)cc(OC)c1OC", "remaining activity [%]": 106}
{"SMILES": "CNC(=O)c1cc(Oc2ccc(NC(=O)Nc3cc(C(C)(C)C)nn3-c3ccc4ncccc4c3)c(F)c2)ccn1", "remaining activity [%]": 98.2}
{"SMILES": "O=c1oc2cc(O)ccc2s1", "remaining activity [%]": 99.5}
{"note": "For quick reference, copied from above (sample 2):"}
{"target": "CDK9 (Homo sapiens, UniProt P50750)", "remaining binding [%]": 100}
{"target": "SGK1 (Homo sapiens, UniProt O00141)", "remaining binding [%]": 80}
{"target": "RET (Homo sapiens, UniProt P07949)", "remaining binding [%]": 99}
{"target": "BMPR2 (Homo sapiens, UniProt Q13873)", "remaining binding [%]": 100}
